Measured values of several laboratories.
Lines come from different studies, so protocols differ. “And” joins repeats or separate records; there may be more than shown. ± marks the error that the study gave. Converted amounts (≈) assume the structure as drawn.

| Compound | assay | system | setting | scale | quantity | result |
| --- | --- | --- | --- | --- | --- | --- |
| O=C([O-])CN1CCN(CC(=O)[O-])CCN(CC(=O)NCC2CCC(C(=O)NC(Cc3ccc4ccccc4c3)C(=O)NCCCCC(NC(=O)NC(CCC(=O)O)C(=O)O)C(=O)O)CC2)CCN(CC(=O)[O-])CC1.[68Ga+3] (centres unmarked) | – | BALB/c mouse, blood | intravenous | – | elimination half-life | 0.267 h |
| C=C(NC(=O)c1csc(-c2nc3c(cc2O)-c2nc(cs2)C(=O)NC(C(C)O)C(=O)NC(=C(C)OC)c2nc(cs2)C(=O)NC2c4nc(cs4)C(=O)NC(COC(=O)c4c5c6c(cccc6n4O)COC(=O)C(OC4CC(C)(O)C(N(C)C)C(C)O4)C2OC5)c2nc-3cs2)n1)C(N)=O (centres unmarked) | – | ICR mice, Streptococcus pneumoniae ATCC 49169 infected, immunocompromised, blood | intravenous, 16 mg/kg/day once daily | – | AUC(0-inf) | 1890 ng·h/mL |
| CN([O-])C(=O)CN1CCN(CC(=O)N(C)[O-])CCN(Cc2ccccn2)CC1.[89Zr+4] | radio-TLC | human serum | 2 days, run 3 | – | intact complex | 93.4% |
| Cc1nn(-c2nc3c(F)cc(F)cc3s2)c(O)c1C(c1ccc(C(F)(F)F)cc1)c1c(C)nn(-c2nc3c(F)cc(F)cc3s2)c1O | – | ICR mouse, plasma | oral, 50 mg/kg | – | AUMC extrapolated observed | 1.75% and 4.57% and 26.1% |
| CN(Cc1ccccc1)C(=O)CN1CCN(CC(=O)[O-])CCN(CC(=O)N(C)Cc2ccccc2)CC1.[44Sc+3] | – | mouse, spleen | intravenous, 1 h | – | tracer uptake | 2.62 %ID/g |
| C=CC(=O)Nc1cc(Nc2nccc(-c3cn(C)c4ccccc34)n2)c(OC)cc1N(C)CCNC | storage stability | human dried blood spot | 30 d, -80 °C, LLOQ level | – | recovery | 98.2% |
| O=C(Nc1cnccc1-c1ccc([18F])cc1)c1ccnc(NC(=O)C2CC2)c1 | – | FVB/NJ mouse, both sexes, brain | intravenous, 20 min, added: tariquidar 15 mg/kg iv | – | SUV | 0.42 |
| COc1ccccc1NC(=O)OC1C(C)C(OC)C=COC2(C)Oc3c(C)c(O)c4c(c3C2=O)C2=NC3(CCN(CC(C)C)CC3)NC2=C(NC(=O)C(C)=CC=CC(C)C(O)C(C)C(O)C1C)C4=O (centres unmarked) | – | CD-1 mouse female, plasma | intravenous, 5 mg/kg | – | elimination rate constant | 1.25e-05 s⁻¹ |
| CN(Cc1ccccc1)C(=O)CN1CCN(CC(=O)[O-])CCN(CC(=O)[O-])CC1.[44Sc+3] | – | mouse, spleen | intravenous, 1 h | – | tracer uptake | 0.94 %ID/g |
| Nc1nc2cnc(C(=O)N3CCOC[C@@H]3c3ccc(C(F)(F)F)cc3)cc2c2c1COC2 | – | human, plasma | – | – | fraction unbound | 0.108 |
| CCCCCCCCCCCCCCCC(=O)N[C@@H](CCCCN)C(=O)N[C@@H](CCCCN)C(=O)N[C@@H](CO)C(=O)N[C@@H](CCCNC(=N)N)C(=O)N[C@@H](C)C(=O)N[C@@H](CC(C)C)C(=O)N[C@@H](Cc1ccccc1)C(N)=O | – | human patients, plasma | intravenous, 0.3 mg/kg over 2 h | – | Vss | 0.14 L/kg |
| N#C[C@@H]1CCCN1C(=O)CNC(=O)c1ccnc2ccc(OCCCN3CCN(C(=O)CCc4ccc5c(c4)CN4CCN6CC(=O)[O][68Ga-]([O]C(=O)C4)([O]5)[O]c4ccc(CCC(=O)N5CCN(CCCOc7ccc8nccc(C(=O)NCC(=O)N9CCC[C@H]9C#N)c8c7)CC5)cc4C6)CC3)cc12 | – | BALB/c nude mice, U-87 MG tumour | 120 min post-injection | baseline: tumour over blood | tumour-to-organ ratio | 10.3 ± 2.94 |
| CC[C@H](C)[C@H](NC(=O)[C@H](C)NC(=O)CNC(=O)[C@H](Cc1ccccc1)NC(=O)[C@H](CC(N)=O)NC(=O)[C@H](CC(N)=O)NC(=O)[C@H](CO)NC(=O)[C@H](CO)NC(=O)[C@H](Cc1c[nH]cn1)NC(=O)[C@@H](NC(=O)[C@H](CC(C)C)NC(=O)[C@H](Cc1ccccc1)NC(=O)[C@H](CC(N)=O)NC(=O)[C@H](C)NC(=O)[C@H](CC(C)C)NC(=O)[C@H](CCCNC(=N)N)NC(=O)[C@H](CCC(N)=O)NC(=O)[C@@H](NC(=O)[C@H](C)NC(=O)[C@@H]1CSSC[C@H](NC(=O)[C@@H](N)CCCCN)C(=O)N[C@@H](CC(N)=O)C(=O)N[C@@H]([C@@H](C)O)C(=O)N[C@@H](C)C(=O)N[C@@H]([C@@H](C)O)C(=O)N1)[C@@H](C)O)C(C)C)C(=O)N[C@@H](CC(C)C)C(=O)N[C@@H](CO)C(=O)N[C@@H](CO)C(=O)N[C@H](C(=O)N[C@@H](CC(N)=O)C(=O)N[C@H](C(=O)NCC(=O)N[C@@H](CO)C(=O)N[C@@H](CC(N)=O)C(=O)N[C@H](C(=O)N[C@@H](Cc1ccc(O)cc1)C(N)=O)[C@@H](C)O)C(C)C)[C@@H](C)O | RP-HPLC | water | 1.0 mg/mL, 7 days, pH 7.5, 40 °C | – | main peak area remaining | < 40% |
| CN(Cc1ccccc1)C(=O)CN1CCN(CC(=O)[O-])CCN(Cc2cccc(C(=O)[O-])n2)CC1.[18F-].[Sc+3] | – | mouse, liver | intravenous, 1 h | – | tracer uptake | 0.85 %ID/g |
| CN(O)C(=O)CCC(=O)NCCCN(CCCCN(CCCNC(=O)CCC(=O)N(C)O)C(=O)CCC(=O)N(C)O)C(=O)CCC(=O)N(C)O.[89Zr] | radio-TLC | aqueous buffer | 1 d, pH 7.2, 37 °C, 89Zr-labelled complex, added: FeCl3 10-fold excess | – | intact complex | 97.6 ± 0.4% |
| C=CC(=O)N1CC2C(=O)N(CCN(C)C)c3c(c4cc(Cl)c(-c5c(O)cccc5F)nc4n(-c4c(C)ccnc4C(C)C)c3=O)N2CC1C (centres unmarked) | – | BALB/c nude mouse, plasma | oral, 100 mg/kg, 8 h | – | unbound plasma concentration | 1280 nM |
| CC[C@H](C)/C=C/C=C/C=C/C(O)=C/C(=O)C(F)(F)F | – | C57BL/6 mice, female, plasma | oral, 25 mg/kg | – | MRT | 2.2 h |
| Cc1cc(-c2ccc(C(=O)[C@@H]3CCCC[C@H]3C(=O)Nc3cnn4c3C(=O)NCC4)cc2)[nH]n1 | – | human, urine | oral, 200 mg, 168-192 h | baseline: dose | recovery of radioactivity per interval | < 0.01% |
| CCC(CC)CNC(=N)NC(=N)NCCCCCCNC(=N)NC(=N)NCC(CC)CC | metabolic stability | rat, liver microsomes | 2 µM | – | microsomal CLint | 37.9 µL/min/mg |

| Compound | assay | system | setting | scale | quantity | result |
| --- | --- | --- | --- | --- | --- | --- |
| O=C([O-])CN1CCN(CC(=O)[O-])CCN(Cc2cccc(C(=O)[O-])n2)CC1.[44Sc+3] | – | mouse, brain | intravenous, 1 h | – | tracer uptake | 0.14 %ID/g |
| CC(C)(O)c1ncc([S@](N)(=O)=NC(=O)Nc2c3c(cc4c2CCC4)CCC3)s1 | refers to: general and administration-site disorders | healthy human volunteers | oral, 100 mg single dose, spray-dried dispersion | – | subjects with adverse events | 50% |
| C/C(N)=N/C(=N\S(=O)(=O)c1ccc(C(F)(F)F)cc1)N1C[C@H](c2ccccc2)C(c2ccc(Cl)cc2)=N1 | – | C57BL/6 mouse, brain | intravenous, 10 mg/kg | – | AUC(0-inf) | 537 ng·h/mL |
| Cc1ncsc1-c1ccc(CNC(=O)[C@@H]2C[C@@H](O)CN2C(=O)[C@@H](NC(=O)COCC(C)(COCCOCCOCCNC(=O)C[C@@H]2N=C(c3ccc(Cl)cc3)c3c(sc(C)c3C)-n3c(C)nnc32)COCCOCCOCCNC(=O)C[C@@H]2N=C(c3ccc(Cl)cc3)c3c(sc(C)c3C)-n3c(C)nnc32)C(C)(C)C)cc1 | – | male C57BL/6 mouse, plasma | subcutaneous, 5 mg/kg, 4 h, single dose | – | concentration | 3830 ng/mL |
| O=C([O-])CN1CCN(CC(=O)[O-])CCN(CC(CCCc2ccccc2[N+](=O)[O-])N(CC(=O)[O-])CC(=O)[O-])CC1.[177Lu+3] (centres unmarked) | TLC | human serum | 86 h, pH 7, 37 °C | – | intact radiolabelled complex | 99.9 ± 0.1% |
| O=C([O-])CN1Cc2cccc(n2)CN(CC(=O)[O-])Cc2cccc(n2)C1.[Mn+2] | differential pulse voltammetry | – | – | baseline: Ag/AgCl | Mn(II)/Mn(III) half-wave potential | 0.772 V |
| Oc1ccc([C@@H]2Oc3ccc(O)cc3[C@@H]3CCC[C@@H]32)cc1 | – | mouse, plasma | oral, 10 mg/kg | – | CL/F | 0.12 L/h |
| O=c1c2ccccc2[se]n1CCCCCCn1[se]c2ccccc2c1=O | shake-flask, RP-HPLC | 10% PEG4000 solution | 24 h, 25 °C | – | solubility | 8 ± 1 µg/mL (≈ 16.7 µM) |
| [2H]C([2H])(N)C([2H])([2H])NC(=O)c1cc(C2CC2)nc2c1cnn2C(C)C | – | female BALB/c mouse, plasma | intraperitoneal, 50 mg/kg, 4 h | – | concentration | 864 ng/mL |
| COc1cccc(OC)c1-c1cc(C(=O)NC2(C(=O)O)C3CC4CC(C3)CC2C4)nn1-c1ccc(C(=O)N(C)CCOCCOCCN(C)C(=O)[C@H](CCCCNC(=O)[C@H](CC(C)C)NC(=O)C2OC2C(=O)O)NC(=O)CN2CCN(CC(=O)[O-])CCN(CC(=O)[O-])CCN(CC(=O)[O-])CC2)cc1C(C)C.[177Lu+3] (mixture of isomers) | – | mouse, HT-29 xenograft | 168 h post injection, biodistribution | baseline: tumour over muscle uptake | tumour-to-muscle ratio | 1.59 |
| COc1ccc2c(c1)C(C)(C)C(/C=C/C1=C(Oc3ccc(C(=O)NCCCCOc4cc(CN(Cc5ccccn5)Cc5ccccn5)cc(CN(Cc5ccccn5)Cc5ccccn5)c4)cc3)C(=C/C=C3/N(CCCCS(=O)(=O)[O-])c4ccc(OC)cc4C3(C)C)CCC1)=[N+]2CCCCS(=O)(=O)[O-].O=[N+]([O-])[O-].O=[N+]([O-])[O-].[99Tc+].[C-]#[O+].[C-]#[O+].[C-]#[O+].[Zn+2] | – | mouse, liver | 12 h | – | tracer uptake | 21.4 %ID/g |
| COC(=O)[C@@]1(C(C)C)C=C(C(=O)Nc2cccc(C(=O)Nc3ccc(Nc4nccc(-c5cccnc5)n4)c(C)c3)c2)C(=O)CC1 | – | rat, blood plasma | 10 µM, 60 min | – | compound remaining | 85.5% |
| COc1cccc(OC)c1-c1cc(C(=O)NC2(C(=O)O)C3CC4CC(C3)CC2C4)nn1-c1ccc(C(=O)N(C)CCCN(C)C(=O)[C@H](CCCCNC(=O)[C@H](CC(C)C)NC(=O)C2OC2C(=O)O)NC(=O)CN2CCN(CC(=O)[O-])CCN(CC(=O)[O-])CCN(CC(=O)[O-])CC2)cc1C(C)C.[177Lu+3] (mixture of isomers) | – | mouse HT-29 xenograft, large intestine | 24 h post injection, biodistribution | – | tissue uptake | 0.25 %ID/g |
| C[C@]12C[C@H](c3ccc(S(C)(=O)=O)cc3)[C@@H]3C4=C(CC[C@H]3[C@@H]1CC[C@@]2(O)C(F)(F)C(F)(F)F)C(=O)[C@H](O)CC4 | – | human, plasma | oral, 5 mg multiple doses, day 28 | – | AUC(0-24 h) | 77.1 ng·h/mL |
| COc1cccc(OC)c1-c1cc(C(=O)NC2(C(=O)O)C3CC4CC(C3)CC2C4)nn1-c1ccc(C(=O)N(C)CCCN(C)CCCN(C)C(=O)[C@H](CCCCNC(=O)[C@H](CC(C)C)NC(=O)C2OC2C(=O)O)NC(=O)CN2CCN(CC(=O)[O-])CCN(CC(=O)[O-])CCN(CC(=O)[O-])CC2)cc1C(C)C.[177Lu+3] (mixture of isomers) | – | mouse, HT-29 xenograft, kidney | 4 h post injection | – | tissue uptake | 10.3 %ID/g |
| CCCCN1C(=O)c2cccc3c(NCCCN4CCOCC4)ccc(c23)C1=O | – | acetonitrile | – | – | fluorescence quantum yield | 0.44 |
| CC(=O)N1CCN(C(=O)c2ccc(Nc3nccc(-c4ccc(Cl)cc4)n3)cc2)CC1 | – | – | – | – | logP | 4.11 |
| O=C(Nc1cnccc1-c1ccc([18F])nc1)c1ccnc(NC(=O)C2CC2)c1 | ex vivo gamma counting | FVB/NJ mice, both sexes, blood | intravenous, 120 min, mean, P-gp inhibitor pretreatment, added: tariquidar 15 mg/kg iv | – | SUV | 0.184 |
| CC[C@H](C)[C@@H]1NC(=O)[C@H](Cc2ccc(O)cc2)NC(=O)CCCSC[C@@H](C(=O)N(CC(=O)N[C@@H](CC(C)C)C(=O)NCC(N)=O)Cc2ccc(F)cc2)NC(=O)[C@H](CC(N)=O)NC(=O)[C@H](CCC(N)=O)NC1=O | – | healthy human females, plasma | intranasal, 100 µg single dose | – | AUC(0-last) | 0.033 ng·h/mL |

Excerpt of the above:
| Compound | assay | system | setting | scale | quantity | result |
| --- | --- | --- | --- | --- | --- | --- |
| CN(O)C(=O)CCC(=O)NCCCN(CCCCN(CCCNC(=O)CCC(=O)N(C)O)C(=O)CCC(=O)N(C)O)C(=O)CCC(=O)N(C)O.[89Zr] | radio-TLC | aqueous buffer | 1 d, pH 7.2, 37 °C, 89Zr-labelled complex, added: FeCl3 10-fold excess | – | intact complex | 97.6 ± 0.4% |
| COc1cccc(OC)c1-c1cc(C(=O)NC2(C(=O)O)C3CC4CC(C3)CC2C4)nn1-c1ccc(C(=O)N(C)CCCN(C)C(=O)[C@H](CCCCNC(=O)[C@H](CC(C)C)NC(=O)C2OC2C(=O)O)NC(=O)CN2CCN(CC(=O)[O-])CCN(CC(=O)[O-])CCN(CC(=O)[O-])CC2)cc1C(C)C.[177Lu+3] (mixture of isomers) | – | mouse HT-29 xenograft, large intestine | 24 h post injection, biodistribution | – | tissue uptake | 0.25 %ID/g |
